Results from different studies.
Every numbered part comes from another study and shows a few of its results, in no order. “And” joins repeats or separate records; there may be more than shown.

Sample 1 — effect on: enzyme activity; mode: inhibitor; tested at: 0.5 µM; relative to: control; measurement: remaining activity
Target: Mitogen-activated protein kinase kinase kinase 2 (MAP3K2, Homo sapiens, UniProt Q9Y2U5)
Residues (Q9Y2U5 1-619): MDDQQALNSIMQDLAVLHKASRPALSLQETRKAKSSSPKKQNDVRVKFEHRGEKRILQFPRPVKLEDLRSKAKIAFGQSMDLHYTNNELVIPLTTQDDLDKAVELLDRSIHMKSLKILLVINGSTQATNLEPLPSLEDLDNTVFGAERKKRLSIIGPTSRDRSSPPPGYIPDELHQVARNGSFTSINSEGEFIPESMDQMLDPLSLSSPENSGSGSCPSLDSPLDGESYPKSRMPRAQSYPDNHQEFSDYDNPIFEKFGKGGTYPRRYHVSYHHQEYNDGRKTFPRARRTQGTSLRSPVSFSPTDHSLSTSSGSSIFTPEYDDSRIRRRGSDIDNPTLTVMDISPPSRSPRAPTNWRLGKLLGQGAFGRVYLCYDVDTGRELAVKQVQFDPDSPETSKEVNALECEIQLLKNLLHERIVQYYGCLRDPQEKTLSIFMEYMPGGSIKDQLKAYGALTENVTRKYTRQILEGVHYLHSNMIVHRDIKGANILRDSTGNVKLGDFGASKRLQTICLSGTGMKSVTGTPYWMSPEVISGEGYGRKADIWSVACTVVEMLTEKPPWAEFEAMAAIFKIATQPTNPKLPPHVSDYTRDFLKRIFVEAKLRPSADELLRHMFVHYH
O=Nc1c(-c2c(O)[nH]c3cc(Br)ccc23)[nH]c2ccccc12: 90.3%
N#C/C(=C(/N)SC1C=CC=CC1)c1cccc(C(O)c2ccncc2)c1 (centres unmarked): 96.9%
Cc1cc(Nc2cc(N3CCN(C)CC3)nc(Sc3ccc(NC(=O)C4CC4)cc3)n2)[nH]n1: 116%
O=C1c2ccccc2-c2nc3nnnn3nc21: 83%
O=C(O)/C=C/c1cc(Br)c(Br)c(Br)c1Br: 102%
CC(C)N(CCC(=O)c1ccc2ccccc2c1)Cc1ccccc1: 107%
Oc1cccc(-c2nc(N3CCOCC3)c3oc4ncccc4c3n2)c1: 103%
FC(F)(F)c1ccc(/C=C/c2nc(COc3ccc(CCCCn4ccnn4)cc3)co2)cc1: 102%
O=Nc1c(-c2c(O)[nH]c3ccccc23)[nH]c2ccccc12: 94.6%
NC(=O)c1cccc(-c2cc(Nc3ccc(OC(F)(F)F)cc3)ncn2)c1: 79.5%
NC(=O)c1ccc(-c2nc(-c3ccc4c(c3)OCCO4)c(-c3ccccn3)[nH]2)cc1: 98.8%
CC(C)(C)c1nc2c3cc[nH]c(=O)c3c3cc(F)ccc3c2[nH]1: 33.9%
c1ccc2c(-c3ccncc3)c[nH]c2c1: 94.9%
O=C1Cc2c([nH]c3ccc(Br)cc23)-c2ccccc2N1: 94.2%
O=C(c1ccccc1)c1ccc(N2CCOCC2)cc1O: 102%
Clc1ccc(Nc2nnc(Cc3ccncc3)c3ccccc23)cc1: 126%
COc1cc2c(N3CCN(C(=O)Nc4ccc(OC(C)C)cc4)CC3)ncnc2cc1OCCCN1CCCCC1: 103%
COc1cccc(-c2cc(=O)c3ccccc3o2)c1N: 103%
Nc1nc(Nc2ccc(S(N)(=O)=O)cc2)nn1C(=S)Nc1c(F)cccc1F: -0.498%
N#Cc1cnc2cnc(NCc3cccnc3)cc2c1Nc1ccc(F)c(Cl)c1: 81.2%
O=C1Nc2ccccc2/C1=C\c1c(Cl)[nH]c2ccccc12: 94%
CCCCc1c(-c2ccc(OC)cc2)[nH]c2nccnc12: 90.9%
N#CC(c1ccnc(NCCc2cccnc2)n1)c1nc2ccccc2s1 (centres unmarked): 98.1%
CN1CCN(c2ccc3nc(-c4c(N)c5c(F)cccc5[nH]c4=O)[nH]c3c2)CC1: 66.2%
CNc1cc2c(Nc3cccc(Br)c3)ncnc2cn1: 74.9%

Sample 2 — mode: inhibitor; tested at: 10 µM; relative to: control; measurement: remaining activity
Target: Diamine acetyltransferase 1 (Homo sapiens, UniProt P21673)
Construct (P21673 1-171): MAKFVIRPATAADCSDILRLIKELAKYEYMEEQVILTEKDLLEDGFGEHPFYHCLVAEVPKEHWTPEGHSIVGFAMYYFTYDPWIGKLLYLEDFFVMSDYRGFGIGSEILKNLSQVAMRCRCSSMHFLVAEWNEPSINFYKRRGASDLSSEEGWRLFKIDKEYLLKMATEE
CCCCCCCCCCCCCCCCCCCCCC(=O)OC: 96.6%
COc1cc(-c2oc3cc(O)cc(O)c3c(=O)c2O)ccc1O: 88%
CC1=CC(=O)CC(C)(C)[C@@]1(O)/C=C/C(C)=C\C(=O)O: 103%
C[C@@H]1CC[C@@]2(OC1)O[C@H]1C[C@H]3[C@@H]4CC=C5C[C@@H](O)CC[C@]5(C)[C@H]4CC[C@]3(C)[C@H]1[C@@H]2C: 93.3%
CCOC(=O)/C=C/c1ccc(O)c(OC)c1: 86.1%
C=CC1(C)CCC(C(C)(C)O)O1 (centres unmarked): 113%
COC(=O)C1=CO[C@@H](O)[C@@H]2C(CO)=CC[C@H]12: 97.2%

Sample 3 — effect on: enzyme activity; mode: inhibitor; tested at: 1 µM; measurement: activity vs control
SMILES: CC(C)S(=O)(=O)c1ccc2nccc(Nc3ccc4sc(C5CCCC5)nc4c3)c2c1
Aurora kinase A (AURKA, Homo sapiens, UniProt O14965): 99%
DCLK2 (Homo sapiens, UniProt Q8N568): 123%
GRK7 (Homo sapiens, UniProt Q8WTQ7): 102%
PDGFRB (Homo sapiens, UniProt P09619): 90%
ABL1 (Homo sapiens, UniProt P00519): 85%
TGFBR1 (Homo sapiens, UniProt P36897): 94%
TTK (Homo sapiens, UniProt P33981): 94%
MAPK13 (Homo sapiens, UniProt O15264): 102%
AKT3 (Homo sapiens, UniProt Q9Y243): 95.5%

Sample 4 — tested at: 1 µM; measurement: remaining binding
SMILES: Cc1c(NC(=O)c2cc(C(N)=O)nc3cc(F)ccc23)c(C(F)(F)F)nn1Cc1ccc(C(C)(C)C)cc1
SBK1 (Homo sapiens, UniProt Q52WX2); cell-free assay, competition with immobilised ligand: 100%
Aurora kinase C (AURKC, Homo sapiens, UniProt Q9UQB9); cell-free assay, competition with immobilised ligand: 100%
MYLK2 (Homo sapiens, UniProt Q9H1R3); cell-free assay, competition with immobilised ligand: 87%
CDK19 (Homo sapiens, UniProt Q9BWU1); competition binding: 100%
FLT3 (Homo sapiens, UniProt P36888, D835V/ITD); cell-free assay, competition with immobilised ligand: 95%
Ribosomal protein S6 kinase alpha-6, C-terminal kinase domain (RPS6KA6, Homo sapiens, UniProt Q9UK32); cell-free assay, competition with immobilised ligand: 100%
AKT2 (Homo sapiens, UniProt P31751); cell-free assay, competition with immobilised ligand: 98%

Sample 5 — mode: degrader; time: 24 h; measurement: remaining protein level
SMILES: C[C@@H]1CN(c2ccc(-c3cc(C(=O)NCCOCCOCCOCCOCCOCCOCCNC(=O)/C=C/c4[nH]cc(C(=O)N[C@@H](CC(N)=O)c5ccc(F)c(Cl)c5)c4-c4ccc(Cl)cc4F)ccc3F)cc2NC(=O)c2ccc(F)cc2C(F)(F)F)C[C@H](C)N1C
WDR5/DCAF1: WDR5/DCAF1 (Homo sapiens, UniProt P61964+Q9Y4B6)
WDR5: WD repeat-containing protein 5 (WDR5, Homo sapiens, UniProt P61964)
WDR5/DCAF1; HiBiT luminescence; 88.1 nM: 81.1% and 75.4% and 68.8%
WDR5/DCAF1; HiBiT luminescence; 34.2 nM: 75.5% and 86.8% and 92%
WDR5; Jess capillary immunoassay, refers to: WDR5 over vinculin; 331 nM; relative to: DMSO: 62.3% and 70.9% and 80.6%
WDR5/DCAF1; HiBiT luminescence; 227 nM: 70.9% and 68% and 61%
WDR5; Jess capillary immunoassay, refers to: WDR5 over vinculin; 10000 nM; relative to: DMSO: 80.7% and 61.3% and 69%
WDR5; Jess capillary immunoassay, refers to: WDR5 over vinculin; 141 nM; relative to: DMSO: 67.5% and 73.7% and 89.9%
WDR5/DCAF1; HiBiT luminescence; 585 nM: 60.4% and 53% and 61.1%
WDR5; Jess capillary immunoassay, refers to: WDR5 over vinculin; 11 nM; relative to: DMSO: 110% and 103% and 68.7%

A few entries again (sample 1):
FC(F)(F)c1ccc(/C=C/c2nc(COc3ccc(CCCCn4ccnn4)cc3)co2)cc1: 102%
Cc1cc(Nc2cc(N3CCN(C)CC3)nc(Sc3ccc(NC(=O)C4CC4)cc3)n2)[nH]n1: 116%
O=C(c1ccccc1)c1ccc(N2CCOCC2)cc1O: 102%
O=C(O)/C=C/c1cc(Br)c(Br)c(Br)c1Br: 102%
c1ccc2c(-c3ccncc3)c[nH]c2c1: 94.9%
COc1cccc(-c2cc(=O)c3ccccc3o2)c1N: 103%
N#Cc1cnc2cnc(NCc3cccnc3)cc2c1Nc1ccc(F)c(Cl)c1: 81.2%
CNc1cc2c(Nc3cccc(Br)c3)ncnc2cn1: 74.9%
CCCCc1c(-c2ccc(OC)cc2)[nH]c2nccnc12: 90.9%
